Results from different studies.
Each numbered part is a random draw from the data of one study; scales do not carry over between parts.

Study 1
Target: Histone acetyltransferase KAT6A, winged helix 1, GST fusion (KAT6A, Homo sapiens, UniProt Q92794, residues 1-85)
Technique: protein binding microarray
Molecule type: double-stranded DNA, one strand shown
Medium: in vitro
Tested at: not given
Notes: 8-mer, flanks averaged, mean of 2 arrays, mostly near background
Relative to: not given
Direction: higher = stronger binding
Measurement: E-score
Target sequence (chain): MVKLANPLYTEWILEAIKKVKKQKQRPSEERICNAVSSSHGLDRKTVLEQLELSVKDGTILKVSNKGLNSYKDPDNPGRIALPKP
AGGTCGGA: -0.0176
TAATTGTA: 0.00117
CTATGAAG: -0.168
CCATCTAG: -0.24
ATCTCAGG: -0.115
ACTCCTCG: -0.271
GATATATA: -0.0936
ACAAAGGT: -0.119
TCCCACGA: -0.0708
AGGGATCA: -0.215
CGACCGAG: 0.206
CATTAAGA: -0.164
ATCATGGC: -0.104
ATACCATG: -0.108
GGAAAAAC: 0.0141
ATAGAGGA: -0.301
AAGCTTGA: -0.0724
ATGCTAAT: -0.172
CTTTCTAA: -0.104
GGTGCGTA: 0.108
CTCCGTAC: 0.248
ACGATCCC: 0.0259
GGAGGCGA: 0.0373
ACAGCGTC: 0.0496
GATAAGTA: 0.0189

Study 2
Target: Centromere-binding protein 1, full length, His-tagged (CBF1, Saccharomyces cerevisiae, UniProt P17106, residues 1-351)
Chain of UniProt P17106 (whole entry, looked up): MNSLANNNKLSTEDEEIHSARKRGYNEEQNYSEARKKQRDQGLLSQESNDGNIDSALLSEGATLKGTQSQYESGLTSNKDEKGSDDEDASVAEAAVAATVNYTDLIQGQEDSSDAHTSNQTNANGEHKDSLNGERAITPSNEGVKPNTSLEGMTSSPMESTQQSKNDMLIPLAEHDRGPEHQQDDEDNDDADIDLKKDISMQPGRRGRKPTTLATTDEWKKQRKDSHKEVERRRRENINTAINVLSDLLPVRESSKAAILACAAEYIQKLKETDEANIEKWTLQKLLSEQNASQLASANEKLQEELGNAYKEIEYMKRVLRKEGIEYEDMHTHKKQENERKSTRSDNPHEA
Technique: competition protein-binding microarray
Molecule type: double-stranded DNA, one strand shown
Medium: in vitro
Tested at: 2 µM
Notes: whole 60-bp probe, lowest competitor level
With: Pho4 competitor, 0.05 µM
Direction: higher = stronger binding
Measurement: fluorescence intensity
CATACCCAACCTTGGATAGTGGGTGAAGATATTTGTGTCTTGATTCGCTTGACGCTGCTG: 74.6 a.u.
TAGCATCATTTTCGTCACGTGCAAAATCTGCCAGTAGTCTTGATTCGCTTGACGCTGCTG: 6510 a.u.
TGCGCAACAACTTGCAGAGTGGGTGTATGTCTAGAAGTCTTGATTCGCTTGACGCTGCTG: 57.3 a.u.
GATCCGTCTACGACTCCCGTGGTGAGCCAACCGTCGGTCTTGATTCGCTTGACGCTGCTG: 64.6 a.u.
CTTTCCCGATCTTTTCACGTGCGGTTAGCACATTTGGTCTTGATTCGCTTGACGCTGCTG: 765 a.u.
TTGACGTTGCATATCAACGTGCCAGATCCCGGAATAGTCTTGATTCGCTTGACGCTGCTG: 111 a.u.
TGTTAGTCAATTGCTCGCGTGGGACGACATTCTCTTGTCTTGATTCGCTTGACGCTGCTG: 68.5 a.u.
TATTTTTTTAAGCAGAACGTGCTTTGCTCTCCCTTTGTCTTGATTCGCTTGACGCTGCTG: 104 a.u.
TTATACCACCATTGCCACGTTCACCAAACAATATGTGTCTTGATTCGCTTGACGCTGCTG: 78.2 a.u.
CGACAAATAGTAGCTCGCGTGGCCGAATGGCAACGCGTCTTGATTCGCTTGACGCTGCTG: 70.6 a.u.
GTCTTGTCTCATTGATCCGTGGGTGTCCCCACTTCAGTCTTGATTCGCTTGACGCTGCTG: 67.5 a.u.
CGGGGTTAAGTTTTTCACGTGGGATGCTTGCAGCAGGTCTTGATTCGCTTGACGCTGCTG: 390 a.u.
AAAGCAGCTTCGGGGTGCGTGATGGAAAAATGCGACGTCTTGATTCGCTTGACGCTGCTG: 159 a.u.
GAGACGAATGAAAAGCACGTGAAGTAACAAACTATTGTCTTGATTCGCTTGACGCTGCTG: 1650 a.u.
TTTTAAGCCGCAATACGCGTGCGGACTTTTCACTGGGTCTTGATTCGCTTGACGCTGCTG: 69.1 a.u.
AGGAAAACAAATGAATGCGTGCCGAAAGCGGAAAATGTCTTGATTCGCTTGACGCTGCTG: 82.2 a.u.
TTATTTATAAAAGGACACGGGAGGGGGAATCCCGTCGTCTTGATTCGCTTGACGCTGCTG: 117 a.u.
CATACCCAACCTTGCATAGTGGGTGAAGATATTTGTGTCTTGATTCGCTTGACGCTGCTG: 77.2 a.u.
AAAGCGGTAATTTGCAAAGTGGGTGCAGATATCTATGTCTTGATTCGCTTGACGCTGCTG: 74.6 a.u.
CGTCCTAGTGATTGGGCGGTGGGTGCCATGAGGAAGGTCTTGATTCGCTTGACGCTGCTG: 73.5 a.u.
CGTCCTAGTGATTGGAGAGTGGGTGCCATGAGGAAGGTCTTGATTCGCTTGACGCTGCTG: 74.9 a.u.
ACTACTTTGAAGAATTGCGTGATGGATATCAAACTTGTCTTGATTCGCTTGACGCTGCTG: 113 a.u.

Study 3
Target: RING finger protein unkempt homolog, zinc fingers 1-6, GST-SBP tag (UNK, Homo sapiens, UniProt Q9C0B0, residues 30-357)
Chain of UniProt Q9C0B0 (30-357, looked up): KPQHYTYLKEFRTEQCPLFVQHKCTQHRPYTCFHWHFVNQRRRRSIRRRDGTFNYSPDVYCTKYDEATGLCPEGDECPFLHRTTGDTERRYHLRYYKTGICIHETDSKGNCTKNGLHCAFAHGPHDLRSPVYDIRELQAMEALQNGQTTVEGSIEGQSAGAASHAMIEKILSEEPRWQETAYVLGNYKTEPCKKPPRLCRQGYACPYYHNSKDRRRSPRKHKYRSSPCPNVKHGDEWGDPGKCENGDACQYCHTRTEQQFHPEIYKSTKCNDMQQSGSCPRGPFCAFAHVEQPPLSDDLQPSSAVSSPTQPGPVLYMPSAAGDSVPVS
Technique: RNA Bind-n-Seq
Molecule type: RNA
Medium: in vitro
Tested at: not given
Notes: RNA with constant flanks, human and mouse sites, ends assumed
Relative to: input RNA pool
Direction: higher = stronger binding
Measurement: bound/input enrichment
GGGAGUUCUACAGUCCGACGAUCGUAAUGGACGUUAAUACUGCUUUACAAGAGGUUCUGAAGACUGCCCUCAUCCACGAUGGCCUAGCACGUGGAAUUCGCGAAGCUGCCAAAGCCUUAGACAAGCGCCAAGCCCAUCUUUGUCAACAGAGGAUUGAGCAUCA: 0.185 ratio
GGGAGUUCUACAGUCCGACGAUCCGGAAAGCCACCAAGUGGGCACAGUCAGGCCUCAUCGUCAGCAUUGGGCCACCUGUAGAGUCUAUCAACCCAGAGACUGUGAGUGGACUAUCCACAGGCGACAAAAAGAAAACUGCCCAACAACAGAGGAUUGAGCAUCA: 0.137 ratio
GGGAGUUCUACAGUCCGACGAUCCAGGUCUAUGGAGUCGAGGUGCCUGCAGAGGGUGAGGCCGAGAAGCCUUGGUGGCAGGUAUUUAGUGAUGACCUUACCAAGCCAAUCAUUGACAAUAUUGUGUCUGAUCUCAUUCAGAUUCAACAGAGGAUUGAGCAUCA: 0.131 ratio
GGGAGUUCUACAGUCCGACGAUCGUUGACUCCCUCAAUGGAUUGGUUUACAUAGGUCAAAGAGGGGAUAACAUCCCAAAGAUAUUAGUGUUCACAGAGGAUGGAUAUUUCCUACGAGCCUGGAAUUAUACAGUUGACACACCUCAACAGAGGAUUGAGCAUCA: 0.304 ratio
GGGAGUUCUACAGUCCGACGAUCAUCAUGUAUCUGUUUUGUCCCAUAAUAUGCUUUUUACUCCCUGAUCCCAGUUUCUGCUGUUGACUCUUCCAUUCAGUUUUAUUUAUUGUGUGUUCUCACAGUGACACCAUUUGUCCUUUUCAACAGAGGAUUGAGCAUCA: 0.839 ratio
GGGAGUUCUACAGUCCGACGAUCCCUGCCUCACCAGUUGGUACACUGUUUUCUGAAAGAGGUGGGAUCCAAAAGAGCUGUUUCUAGCUGCACUCCAAGCAUCUGAGACUUUGGGCACAAGGACACUUUUCUUUUCUUUUUUUUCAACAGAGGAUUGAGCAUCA: 0.298 ratio
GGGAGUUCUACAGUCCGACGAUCAAACAGCAAAAAUAUCCAACAAAAGUCUCCUUCAGUUCACAAGAGAUACCAUUAGCACCAGCUUCAUCAUACCAUUCAACAGAUGCAGACUUCACAGGCUAUGGUGGUUUCCAGGCUCCUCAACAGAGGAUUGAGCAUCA: 0.337 ratio
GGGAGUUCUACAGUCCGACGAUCACACCUGCUUUAUAUAUGCUUUCUCCUUUCAGUCCUCUAAGAAGAAUAUCUAUUAAGAUUUUAGUACACUCCUUAUUCAGCAUGCUCAUCAUGUGCACUAUUCUGACAAACUGCAUAUUUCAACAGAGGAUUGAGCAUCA: 0.611 ratio
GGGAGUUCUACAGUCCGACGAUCGAGAAACUCAAGACCAUCAGCUUGGUGAUUCGCAGUACCCAGGGGGCUGAGGAGGUGCUUAAAACCCAUGAGGAGCAGCUGAAGGAGGCCCAGGCUGUGCCUGCCACUCUCCAAGAGCUUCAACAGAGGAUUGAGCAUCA: 0.11 ratio
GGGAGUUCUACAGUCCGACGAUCGUCCCAGGCUCUCUGUUGACAGAGUUGGCUCUCUAGAGUCUCGUACUUUAUUCAUAAAUCUAGUAGGAGCGAGGACACAUUAGUAGAUGCAGAAGUGAAAUGUUUUCACUGUCACUGUGACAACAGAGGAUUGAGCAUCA: 2.56 ratio
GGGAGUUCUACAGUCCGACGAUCAAUGACAAGGUGAAGUAUGAAGUAACAGAAGAUGUGUACACAUCCAGAAAGAAACAACACCAGACCAUGAUGCAUUAUUUUUGUGCAUUAAAUACUCUUCAGUACAAGAAGAAAAUAGCACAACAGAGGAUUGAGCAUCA: 0.223 ratio

Study 4
Target: RNA binding protein fox-1 homolog 2, RRM domain, GST-SBP tag (RBFOX2, Homo sapiens, UniProt O43251-10, residues 100-194)
Technique: RNA Bind-n-Seq
Molecule type: RNA
Medium: in vitro
Tested at: 365 nM
Notes: natural RNA segment, single round, ends assumed
Relative to: no-protein control
Direction: higher = stronger binding
Measurement: RBNS enrichment (R)
Construct (chain): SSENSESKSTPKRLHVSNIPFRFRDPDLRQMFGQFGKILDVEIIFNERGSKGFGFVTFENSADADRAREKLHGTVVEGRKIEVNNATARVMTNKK
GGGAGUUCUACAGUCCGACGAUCACCCCCCAGGGAGCUGCCUCCCAGGCAGGGGGUGCAGAAAAUGAUUGAUGGGCUGGGGAACCCUGGAGAGCCUCGACUCCGGAAGUCUCAAGGUGCCUCCUCCUCUCCUUUGGAAUUCUCGGGUGCCAA: 0.297
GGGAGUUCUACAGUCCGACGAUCGACACUAUUAAAUAAGCAGUAAUUCCUUGAAAGGAGUACCUGUACCAAGUCCUAGGAAAUAAUGCUUGUAAUAAACUUAACUGUGUUACAUCAGUAGGUAAAAUACAUAAUGGAAUUCUCGGGUGCCAA: 0.25
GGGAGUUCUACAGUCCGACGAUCAGAAGAAAUAUGUUACACUCAGAAAUGAUGAAACCAAAUCUUAUAUUAAAAGGCAAAGAUGACGGAGCUGUGCCCAUUUCUUAUAUGCCCUCCCUCAUGUCCAGUCCCCGUGGAAUUCUCGGGUGCCAA: 0.305
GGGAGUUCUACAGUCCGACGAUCUCAAUGAACAGUAAUAAUUUCCCAAUUUACAGAUUAGUGUCUACAAAGGUUUUCUUACAUCUUCUUCCAUUGCAUAAUAUGCCUUGUGUAAUAGUUAAGAAAUCAUUUUUUGGAAUUCUCGGGUGCCAA: 0.367
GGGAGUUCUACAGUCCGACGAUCUAUAAAAAAAUUGUUGUUUACUAUGGAAUUAGUAUUACAUUUUGAGGUAAACAAAAGAAUUUGUAUUGCUUGAUAAAUAUUAGCUUGUAAAUUUAAAGUUUCUUUACUUCUGGAAUUCUCGGGUGCCAA: 0.818
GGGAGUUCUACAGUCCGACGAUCCAGAGCCUUCCGAGCAGCAUUUAGAAAGCACCUUUGGGAAUGAUGGACUGCAAGGGAGUGGGCGGAUCUUCCUCUUAAACAGUAUUCUUAGAGUAGGAUUGACCUCAUGGUGGAAUUCUCGGGUGCCAA: 1.62
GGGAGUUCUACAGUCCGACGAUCAAUAUAUAUUUUAAUAUCUGUAAAAAGUGACAGUGGAAGACUUUGAAUUUCUCAUAUAUGGUAUGUUUGAUGUAGGACCUCACUGUUAAGGCACAAAUUAUUUCAAAGGAUGGAAUUCUCGGGUGCCAA: 0.526
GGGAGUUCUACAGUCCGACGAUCAAAUACAAAUGAAGUCACGUUUCCUGAGCAGUUUUUCUGAGUCUCAAACUAGGAACAAAUUCUGAGUGUACCAAUGGCUGCGAAUGCUAUGAUUUUGUGACUUCUGGUCAUGGAAUUCUCGGGUGCCAA: 0.342
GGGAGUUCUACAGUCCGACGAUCAAUAUCCAAAUUAUAAAUACUAAGGAAACUUUGUUUCCAGUUUGGCAAUGAUCCAGUCUAAAGUAGAACCUCAAUUUAAAAGAUUGAGGUUCAGAGCAUCAACACUCCAUUGGAAUUCUCGGGUGCCAA: 0.294
